Measured values pooled from the literature.
U2AF2: U2AF2 148-342 (Homo sapiens, UniProt P26368)
UniProt P26368, sequence (whole entry, looked up): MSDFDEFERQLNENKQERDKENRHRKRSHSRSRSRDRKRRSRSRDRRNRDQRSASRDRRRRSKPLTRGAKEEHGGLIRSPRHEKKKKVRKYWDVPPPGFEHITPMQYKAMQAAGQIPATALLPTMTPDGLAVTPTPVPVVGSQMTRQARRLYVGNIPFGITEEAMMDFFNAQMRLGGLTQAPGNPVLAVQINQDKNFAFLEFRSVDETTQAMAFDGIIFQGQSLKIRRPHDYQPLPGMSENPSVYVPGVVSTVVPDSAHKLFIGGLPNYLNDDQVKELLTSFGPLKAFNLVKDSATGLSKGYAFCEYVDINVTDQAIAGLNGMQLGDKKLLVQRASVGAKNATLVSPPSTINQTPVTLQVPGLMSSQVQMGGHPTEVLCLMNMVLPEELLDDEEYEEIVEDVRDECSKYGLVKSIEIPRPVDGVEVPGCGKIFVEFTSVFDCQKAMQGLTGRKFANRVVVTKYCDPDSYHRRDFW
B1: NUP60 200-318 (Saccharomyces cerevisiae, UniProt P39705); sequence looked up; chain SMNTTLGSIGSRKYSFNYSSLPSPYKTTVYRYSAAKKIPDTYTANTSAQSIASAKSVRSGVSKSAPSKKISNTAAALVSLLDENDSKKNNAASELANPYSSYVSQIRKHKRVSPNAAPR
B2: ND4L 1-89 (Yarrowia lipolytica, UniProt Q9B6D4); sequence looked up; chain MFIGTIILVLSFLGFVFNRRNIILAFICLETMLLGINLILLRNSVLFDDISGSLFAIVIIILAGVESAIGLSLLVSYYRLRGVINSYGI
B3: CCDC32 (Mus musculus, UniProt Q8BS39); chain MKMFESLDSSATKSGRDLWAEICSCLPSPAQEDVSDNAFSDSFMDSHPAGESHTAAADSAVQPAGKPWAPLHDSEVYLASLEKKLRRIKGLNEEVTSKDMLRTLAQAKKECWDRFLQEKLASEFFVDGLDSDERTLEHFKRWLQPDKVAISTEEVQFLIPPESQAEKPEAGDKPAAAEQ
B4: AEBP2 407-498 (Homo sapiens, UniProt Q6ZN18-2); sequence looked up; chain RHRAICFNLSAHIESLGKGHSVVFHSTVIAKRKEDSGKIKLLLHWMPEDILPDVWVNESERHQLKTKVVHLSKLPKDTALLLDPNIYRTMPQ
B5: TFC6 1-672 (Saccharomyces cerevisiae, UniProt Q06339); chain MAVIPAKKRGRPRKSVVAEVPYDSLASPVSENSGSKRPRRNASKKAVANFAQLVHAGRDDVINTTQVNNVDDTDDDDFVLNDEGDGEESDNVEIEFENELESTKNEVADLNSSGSGASVRPSGRRNTVQKLRLKKNSTKNMKSSSPGSSLGQKGRPIRLLKDLSSARDKIERIYGLNKEKLLLLAKVKEGFETSVFDFPFKNIQPDSPYFVCLDPPCKKESAYNKVIGDKNRTVYHEINKTEFENMIKLRTKRLKLLIGEVDAEVSTGDKIEFPVLANGKRRGFIYNVGGLVTDIAWLNIEENTDIGKDIQYLAVAVSQYMDEPLNEHLEMFDKEKHSSCIQIFKMNTSTLHCVKVQTIVHSFGEVWDLKWHEGCHAPHLVGCLSFVSQEGTINFLEIIDNATDVHVFKMCEKPSLTLSLADSLITTFDFLSPTTVVCGFKNGFVAEFDLTDPEVPSFYDQVHDSYILSVSTAYSDFEDTVVSTVAVDGYFYIFNPKDIATTKTTVSRFRGSNLVPVVYCPQIYSYIYSDGASSLRAVPSRAAFAVHPLVSRETTITAIGVSRLHPMVLAGSADGSLIITNAARRLLHGIKNSSATQKSLRLWKWDYSIKDDKYRIDSSYEVYPLTVNDVSKAKIDAHGINITCTKWNETSAGGKCYAFSNSAGLLTLEYLS
B6: ATG9 1-100 (Saccharomyces cerevisiae, UniProt Q12142); sequence looked up; chain MERDEYQLPNSHGKNTFLSRIFGLQSDEVNPSLNSQEMSNFPLPDIERGSSLLHSTNDSREDVDENDLRVPESDQGTSTEEEDEVDEEQVQAYAPQISDG
B7: BAP1 1-240 (Homo sapiens, UniProt Q92560); sequence looked up; chain MNKGWLELESDPGLFTLLVEDFGVKGVQVEEIYDLQSKCQGPVYGFIFLFKWIEERRSRRKVSTLVDDTSVIDDDIVNNMFFAHQLIPNSCATHALLSVLLNCSSVDLGPTLSRMKDFTKGFSPESKGYAIGNAPELAKAHNSHARPEPRHLPEKQNGLSAVRTMEAFHFVSYVPITGRLFELDGLKVYPIDHGPWGEDEEWTDKARRVIMERIGLATAGEPYHDIRFNLMAVVPDRRIK
B8: PTPN6 1-109 (Homo sapiens, UniProt P29350-3); chain MLSRGWFHRDLSGLDAETLLKGRGVHGSFLARPSRKNQGDFSLSVRVGDQVTHIRIQNSGDFYDLYGGEKFATLTELVEYYTQQQGVLQDRDGTIIHLKYPLNCSDPTS
B9: RAD52 K144A (Homo sapiens, UniProt P43351); sequence looked up; chain MSGTEEAILGGRDSHPAAGGGSVLCFGQCQYTAEEYQAIQKALRQRLGPEYISSRMAGGGQKVCYIEGHRVINLANEMFGYNGWAHSITQQNVDFVDLNNGKFYVGVCAFVRVQLKDGSYHEDVGYGVSEGLKSKALSLEKARAEAVTDGLKRALRSFGNALGNCILDKDYLRSLNKLPRQLPLEVDLTKAKRQDLEPSVEEARYNSCRPNMALGHPQLQQVTSPSRPSHAVIPADQDCSSRSLSSSAVESEATHQRKLRQKQLQQQFRERMEKQQVRVSTPSAEKSEAAPPAPPVTHSTPVTVSEPLLEKDFLAGVTQELIKTLEDNSEKWAVTPDAGDGVVKPSSRADPAQTSDTLALNNQMVTQNRTPHSVCHQKPQAKSGSWDLQTYSADQRTTGNWESHRKSQDMKKRKYDPS
B10: MAP1LC3C (Homo sapiens, UniProt Q9BXW4); chain MPPPQKIPSVRPFKQRKSLAIRQEEVAGIRAKFPNKIPVVVERYPRETFLPPLDKTKFLVPQELTMTQFLSIIRSRMVLRATEAFYLLVNNKSLVSMSATMAEIYRDYKDEDGFVYMTYASQETFG
B11: ELM1 S605D/S604D/S519D/T463D/S424D/S422D/S324D (Saccharomyces cerevisiae, UniProt P32801); sequence looked up; chain MSPRQLIPTLIPEWAPLSQQSCIREDELDSPPITPTSQTSSFGSSFSQQKPTYSTIIGENIHTILDEIRPYVKKITVSDQDKKTINQYTLGVSAGSGQFGYVRKAYSSTLGKVVAVKIIPKKPWNAQQYSVNQVMRQIQLWKSKGKITTNMSGNEAMRLMNIEKCRWEIFAASRLRNNVHIVRLIECLDSPFSESIWIVTNWCSLGELQWKRDDDEDILPQWKKIVISNCSVSTFAKKILEDMTKGLEYLHSQGCIHRDIKPSNILLDEEEKVAKLSDFGSCIFTPQSLPFSDANFEDCFQRELNKIVGTPAFIAPELCHLGNDKRDFVTDGFKLDIWSLGVTLYCLLYNELPFFGENEFETYHKIIEVSLSSKINGNTLNDLVIKRLLEKDVTLRISIQDLVKVLSRDQPIDSRNHSQISDSDVNPVRNEGPVRRFFGRLLTKKGKKKTSGKGKDKVLVSADSKVTPSIHIDEEPDKECFSTTVLRSSPDSSDYCSSLGEEAIQVTDFLDTFCRSNEDLPNLTVNNDKQNSDMKTDRSESSSHSSLKIPTPIKAMIRLKSSPKENGNRTHINCSQDKPSSPLMDRTVGKRTVNNSGARKLAHDDNILNFKAYINSEDSDIRETVEDVKTYLNFADNGQI
B12: Pard6b 254-371 (Mus musculus, UniProt Q9JK83); chain NVVRNSRTSGSSSQSTDNSLLGFPQQVEASFEPEDQDSDEDDIIIEDSGEPQQIPKATPAQSLESLTQIELSFESGQNGFSPPQDTSLVPVPGSLDTELESRAPDQKLLEEDGTIITL
B13: tnsD 1-318 E35A (Escherichia coli, UniProt P13991); sequence looked up; chain MRNFPVPYSNELIYSTIARAGVYQGIVSPKQLLDAVYGNRKVVATLGLPSHLGVIARHLHQTGRYAVQQLIYEHTLFPLYAPFVGKERRDEAIRLMEYQAQGAVHLMLGVAASRVKSDNRFRYCPDCVALQLNRYGEAFWQRDWYLPALPYCPKHGALVFFDRAVDDHRHQFWALGHTELLSDYPKDSLSQLTALAAYIAPLLDAPRAQELSPSLEQWTLFYQRLAQDLGLTKSKHIRHDLVAERVRQTFSDEALEKLDLKLAENKDTCWLKSIFRKHRKAFSYLQHSIVWQALLPKLTVIEALQQASALTEHSITTR
B14: NOTCH4 276-511 (Homo sapiens, UniProt Q99466); sequence looked up; chain NPDNCVSHQCQNGGTCQDGLDTYTCLCPETWTGWDCSEDVDECETQGPPHCRNGGTCQNSAGSFHCVCVSGWGGTSCEENLDDCIAATCAPGSTCIDRVGSFSCLCPPGRTGLLCHLEDMCLSQPCHGDAQCSTNPLTGSTLCLCQPGYSGPTCHQDLDECLMAQQGPSPCEHGGSCLNTPGSFNCLCPPGYTGSRCEADHNECLSQPCHPGSTCLDLLATFHCLCPPGLEGQLCE
B15: mrc1 781-851 (Schizosaccharomyces pombe, UniProt Q9P7T4); sequence looked up; chain GALRKRNRNGFAALDDSDDEDYSNLRREKLKELRRQKLLEDGNLNVLEGDKRKAFLATVEDSLVSSKDNLT
B16: PSMA3 (Homo sapiens, UniProt P25788); chain MSSIGTGYDLSASTFSPDGRVFQVEYAMKAVENSSTAIGIRCKDGVVFGVEKLVLSKLYEEGSNKRLFNVDRHVGMAVAGLLADARSLADIAREEASNFRSNFGYNIPLKHLADRVAMYVHAYTLYSAVRPFGCSFMLGSYSVNDGAQLYMIDPSGVSYGYWGCAIGKARQAAKTEIEKLQMKEMTCRDIVKEVAKIIYIVHDEVKDKAFELELSWVGELTNGRHEIVPKDIREEAEKYAKESLKEEDESDDDNM
B17: fesII 1-122 (Azotobacter vinelandii, UniProt Q44501); chain MATIYFSSPLMPHNKKVQAVAGKRSTLLGVAQENGVKIPFECQDGNCGSCLVKITHLDGERIKGMLLTDKERNVLKSVGKLPKSEEERAAVRDLPPTYRLACQTIVTDEDLLVEFTGEPGGA
B18: CNOT3 607-748 (Homo sapiens, UniProt O75175); sequence looked up; chain LTKEQLYQQAMEEAAWHHMPHPSDSERIRQYLPRNPCPTPPYHHQMPPPHSDTVEFYQRLSTETLFFIFYYLEGTKAQYLAAKALKKQSWRFHTKYMMWFQRHEEPKTITDEFEQGTYIYFDYEKWGQRKKEGFTFEYRYLE
UniProt P05846, sequence (whole entry, looked up): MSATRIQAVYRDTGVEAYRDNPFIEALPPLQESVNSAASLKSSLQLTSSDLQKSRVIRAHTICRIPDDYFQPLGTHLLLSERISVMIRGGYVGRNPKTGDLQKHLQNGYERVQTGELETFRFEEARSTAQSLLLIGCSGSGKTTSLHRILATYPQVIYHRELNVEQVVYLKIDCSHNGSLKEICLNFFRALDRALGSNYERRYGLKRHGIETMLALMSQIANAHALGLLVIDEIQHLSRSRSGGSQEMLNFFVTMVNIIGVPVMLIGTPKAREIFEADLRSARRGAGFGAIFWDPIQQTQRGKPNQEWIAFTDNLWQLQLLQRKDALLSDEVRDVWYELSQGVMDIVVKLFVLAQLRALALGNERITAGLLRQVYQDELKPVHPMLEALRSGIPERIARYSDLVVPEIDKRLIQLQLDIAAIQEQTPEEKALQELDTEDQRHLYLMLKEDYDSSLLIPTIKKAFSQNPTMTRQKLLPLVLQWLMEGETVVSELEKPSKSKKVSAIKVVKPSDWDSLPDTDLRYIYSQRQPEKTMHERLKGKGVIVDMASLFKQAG
UniProt O94874, sequence (whole entry, looked up): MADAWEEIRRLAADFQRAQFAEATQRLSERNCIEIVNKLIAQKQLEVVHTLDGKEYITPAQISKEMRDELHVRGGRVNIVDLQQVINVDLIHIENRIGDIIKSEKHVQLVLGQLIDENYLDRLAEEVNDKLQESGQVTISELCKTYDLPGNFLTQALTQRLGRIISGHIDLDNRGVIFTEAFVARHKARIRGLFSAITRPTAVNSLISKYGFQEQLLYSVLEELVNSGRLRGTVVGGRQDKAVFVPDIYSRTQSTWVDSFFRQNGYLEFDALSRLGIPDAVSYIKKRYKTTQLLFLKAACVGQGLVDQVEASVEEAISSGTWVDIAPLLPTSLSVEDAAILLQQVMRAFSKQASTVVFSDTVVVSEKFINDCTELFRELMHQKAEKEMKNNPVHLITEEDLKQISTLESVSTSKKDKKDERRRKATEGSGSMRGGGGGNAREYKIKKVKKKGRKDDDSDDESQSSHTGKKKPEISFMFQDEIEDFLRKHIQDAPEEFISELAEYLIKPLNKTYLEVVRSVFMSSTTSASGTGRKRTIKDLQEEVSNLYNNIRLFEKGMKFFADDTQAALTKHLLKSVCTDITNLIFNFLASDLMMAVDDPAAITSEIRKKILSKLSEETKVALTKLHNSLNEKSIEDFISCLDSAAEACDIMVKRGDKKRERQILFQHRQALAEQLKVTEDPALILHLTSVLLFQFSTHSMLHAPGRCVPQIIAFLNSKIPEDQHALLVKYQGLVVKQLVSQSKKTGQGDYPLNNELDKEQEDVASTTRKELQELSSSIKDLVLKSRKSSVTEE
UniProt Q12263, sequence (whole entry, looked up): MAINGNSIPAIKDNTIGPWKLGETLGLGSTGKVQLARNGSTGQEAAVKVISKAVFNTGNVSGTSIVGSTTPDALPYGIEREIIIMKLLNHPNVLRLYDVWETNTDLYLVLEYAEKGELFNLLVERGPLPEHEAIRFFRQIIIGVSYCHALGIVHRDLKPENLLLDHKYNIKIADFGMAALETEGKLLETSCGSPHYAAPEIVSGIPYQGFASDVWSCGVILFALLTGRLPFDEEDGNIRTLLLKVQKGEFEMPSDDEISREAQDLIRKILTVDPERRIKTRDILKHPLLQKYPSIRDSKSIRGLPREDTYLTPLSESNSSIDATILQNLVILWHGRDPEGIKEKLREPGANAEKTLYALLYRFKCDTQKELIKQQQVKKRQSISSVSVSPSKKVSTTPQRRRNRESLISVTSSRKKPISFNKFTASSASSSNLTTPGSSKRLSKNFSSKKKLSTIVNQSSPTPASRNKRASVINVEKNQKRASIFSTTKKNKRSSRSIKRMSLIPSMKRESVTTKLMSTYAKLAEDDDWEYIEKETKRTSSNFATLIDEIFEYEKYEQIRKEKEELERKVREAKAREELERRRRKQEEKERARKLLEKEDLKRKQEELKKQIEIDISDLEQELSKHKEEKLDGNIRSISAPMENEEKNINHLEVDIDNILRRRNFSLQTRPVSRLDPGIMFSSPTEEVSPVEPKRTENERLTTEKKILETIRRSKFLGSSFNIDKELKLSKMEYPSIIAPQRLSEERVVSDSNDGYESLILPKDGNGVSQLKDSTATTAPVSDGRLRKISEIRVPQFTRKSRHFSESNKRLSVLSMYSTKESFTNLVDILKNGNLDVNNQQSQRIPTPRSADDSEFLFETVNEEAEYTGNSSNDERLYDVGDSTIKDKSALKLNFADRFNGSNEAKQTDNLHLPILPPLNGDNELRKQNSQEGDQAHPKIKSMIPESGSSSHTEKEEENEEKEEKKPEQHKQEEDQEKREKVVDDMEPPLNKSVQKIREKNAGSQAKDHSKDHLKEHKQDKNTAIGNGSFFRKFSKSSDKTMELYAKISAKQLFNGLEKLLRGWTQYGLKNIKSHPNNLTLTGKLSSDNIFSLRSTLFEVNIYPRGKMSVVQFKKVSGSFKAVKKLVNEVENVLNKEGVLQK
UniProt Q969U7, sequence (whole entry, looked up): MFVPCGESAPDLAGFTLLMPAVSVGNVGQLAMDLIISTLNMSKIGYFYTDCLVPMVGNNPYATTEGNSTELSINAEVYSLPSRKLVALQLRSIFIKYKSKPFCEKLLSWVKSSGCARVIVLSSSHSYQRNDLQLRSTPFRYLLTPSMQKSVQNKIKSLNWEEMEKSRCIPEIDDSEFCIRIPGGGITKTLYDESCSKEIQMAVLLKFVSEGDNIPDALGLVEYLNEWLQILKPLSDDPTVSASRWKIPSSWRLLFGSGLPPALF
UniProt P53011, sequence (whole entry, looked up): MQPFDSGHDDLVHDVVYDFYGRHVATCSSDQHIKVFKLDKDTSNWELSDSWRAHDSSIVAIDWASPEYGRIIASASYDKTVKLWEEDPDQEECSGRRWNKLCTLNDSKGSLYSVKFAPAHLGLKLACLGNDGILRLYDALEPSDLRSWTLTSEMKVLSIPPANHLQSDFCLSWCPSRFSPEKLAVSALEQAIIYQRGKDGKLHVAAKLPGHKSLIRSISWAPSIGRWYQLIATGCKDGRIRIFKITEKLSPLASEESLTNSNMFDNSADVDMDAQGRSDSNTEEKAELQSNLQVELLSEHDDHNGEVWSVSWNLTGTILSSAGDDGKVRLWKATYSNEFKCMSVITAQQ
UniProt Q9NR61, sequence (whole entry, unmodified, looked up): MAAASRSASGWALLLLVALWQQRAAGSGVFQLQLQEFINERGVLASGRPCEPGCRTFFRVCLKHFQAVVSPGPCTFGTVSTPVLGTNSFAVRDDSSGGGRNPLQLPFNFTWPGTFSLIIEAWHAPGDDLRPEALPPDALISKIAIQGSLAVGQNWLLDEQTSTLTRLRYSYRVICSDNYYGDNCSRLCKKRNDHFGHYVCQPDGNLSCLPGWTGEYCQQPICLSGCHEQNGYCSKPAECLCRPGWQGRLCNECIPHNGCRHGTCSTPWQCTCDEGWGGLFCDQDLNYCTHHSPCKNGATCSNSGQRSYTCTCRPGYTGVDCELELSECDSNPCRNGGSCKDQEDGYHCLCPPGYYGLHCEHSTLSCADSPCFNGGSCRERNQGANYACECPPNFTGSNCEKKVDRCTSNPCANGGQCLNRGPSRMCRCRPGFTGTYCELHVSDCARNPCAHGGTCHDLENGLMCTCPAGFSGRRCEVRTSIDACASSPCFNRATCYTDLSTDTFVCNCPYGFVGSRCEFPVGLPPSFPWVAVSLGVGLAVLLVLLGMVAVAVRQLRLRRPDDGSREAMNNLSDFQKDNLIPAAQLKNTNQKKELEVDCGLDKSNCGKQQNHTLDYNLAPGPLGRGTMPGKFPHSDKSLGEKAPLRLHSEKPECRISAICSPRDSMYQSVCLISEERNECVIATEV
UniProt Q9B6C7, sequence (whole entry, looked up): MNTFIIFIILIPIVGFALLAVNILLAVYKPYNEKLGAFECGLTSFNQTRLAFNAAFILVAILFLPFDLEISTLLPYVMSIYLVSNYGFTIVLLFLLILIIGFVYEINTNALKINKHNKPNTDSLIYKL
UniProt Q06671, sequence (whole entry, looked up): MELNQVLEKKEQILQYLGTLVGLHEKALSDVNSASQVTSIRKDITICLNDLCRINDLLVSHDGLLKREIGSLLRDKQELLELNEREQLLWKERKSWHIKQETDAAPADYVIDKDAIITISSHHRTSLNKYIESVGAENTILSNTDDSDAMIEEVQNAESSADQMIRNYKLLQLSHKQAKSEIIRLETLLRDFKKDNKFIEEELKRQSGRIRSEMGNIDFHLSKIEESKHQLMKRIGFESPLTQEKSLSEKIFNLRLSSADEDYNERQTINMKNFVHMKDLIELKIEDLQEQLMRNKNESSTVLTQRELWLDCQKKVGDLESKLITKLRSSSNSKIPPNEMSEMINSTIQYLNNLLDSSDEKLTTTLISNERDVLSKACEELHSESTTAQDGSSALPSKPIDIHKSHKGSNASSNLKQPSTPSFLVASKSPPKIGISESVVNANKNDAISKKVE

GVGGSWGVFSSGESPAIVPDK (TET3 peptide 1451-1471 (Homo sapiens, UniProt O43151); sequence looked up)
binding (KMT2C 1083-1143 (Homo sapiens, UniProt Q8NEZ4); NMR titration; peptide): binds

B1 (NUP60 200-318)
binding (SEH1 (Saccharomyces cerevisiae, UniProt P53011); cross-linking): binds

B2 (ND4L 1-89)
binding (ND3 1-128 (Yarrowia lipolytica, UniProt Q9B6C7); cryo-EM): binds

B3 (CCDC32)
binding (Ap2m1 122-435 (Mus musculus, UniProt P84091); pull-down): binds

B4 (AEBP2 407-498)
binding (SUZ12/RBBP4 SUZ12 76-545 (Homo sapiens); SEC): binds

GUUUGGAUU (ssRNA)
Kd (U2AF2; sequencing of bound RNA; RNA; motif only): 2.89 µM

B5 (TFC6 1-672)
binding (TFC4 1-1025 (Saccharomyces cerevisiae, UniProt P33339); cryo-EM): binds

B6 (ATG9 1-100)
binding (ATG23 full-length, dimer (Saccharomyces cerevisiae, UniProt Q06671); pull-down; 15 minutes, 4 °C): binds

B7 (BAP1 1-240)
binding (UFL1 (Homo sapiens, UniProt O94874); pull-down): binds

B8 (PTPN6 1-109)
binding (CD22, tyrosine phosphorylated (Homo sapiens, UniProt P20273); far-Western blot; anti-IgM-stimulated): binds

B9 (RAD52 K144A)
binding (SETX (Homo sapiens, UniProt Q7Z333); pull-down): binds

B10 (MAP1LC3C)
binding (HEATR3 (Homo sapiens, UniProt Q7Z4Q2); pull-down): binds

KESALRKQDLLLEFDPLLR (TACC3 to 568 550-568 S558D/Y560L/K562E (Homo sapiens, UniProt Q9Y6A5); sequence looked up)
binding (CLTC 358-574 (Homo sapiens, UniProt Q00610); peptide array; peptide): binds

B11
binding (GIN4 (Saccharomyces cerevisiae, UniProt Q12263); pull-down): binds

B12 (Pard6b 254-371)
binding (LLGL2 13-978, dephosphorylated (Homo sapiens, UniProt Q6P1M3); pull-down): binds

B13 (tnsD 1-318 E35A)
binding (tnsC 1-503 (Escherichia coli, UniProt P05846); dynamic light scattering; with: ATP): binds

B14 (NOTCH4 276-511)
binding (DLL4 27-400 G28S/F107L/I143F/H194Y/L206P (Homo sapiens, UniProt Q9NR61); SPR): binds

AAUUUCUUU (ssRNA)
Kd (U2AF2; sequencing of bound RNA; RNA; motif only): 14.4 µM

ATKAARKSAPATG (H3 peptide 22-34 (UniProt P68431); K27me3)
binding (CBX7 8-62 D50C/R52D (Homo sapiens, UniProt O95931); array; peptide): binds

B15 (mrc1 781-851)
binding (MCM2-7 complex/Mcm2-Flag MCM2-7 complex (Schizosaccharomyces pombe); pull-down): binds

pduC (Salmonella enterica, UniProt P37450)
binding (PduG (Salmonella enterica Typhimurium LT2, UniProt O31043); cross-linking): binds

B16 (PSMA3)
binding (PSMG2 (Homo sapiens, UniProt Q969U7); cryo-EM): binds

B17 (fesII 1-122)
binding (nifD/nifK MoFe protein (Azotobacter vinelandii); cryo-EM): binds

B18 (CNOT3 607-748)
binding (PUM1 589-1186 (Homo sapiens, UniProt Q14671); cross-linking): binds

For quick reference, copied from above:
B9 (RAD52 K144A)
binding (SETX (Homo sapiens, UniProt Q7Z333); pull-down): binds

ATKAARKSAPATG (H3 peptide 22-34 (UniProt P68431); K27me3)
binding (CBX7 8-62 D50C/R52D (Homo sapiens, UniProt O95931); array; peptide): binds

B8 (PTPN6 1-109)
binding (CD22, tyrosine phosphorylated (Homo sapiens, UniProt P20273); far-Western blot; anti-IgM-stimulated): binds
